Published values of several laboratories.
Compare with care: the assays were run in different laboratories. ± gives the spread as reported.

`CCCCCCCCCC(=O)N[C@@H](Cc1c[nH]c2ccccc12)C(=O)N[C@H](CC(N)=O)C(=O)N[C@@H](CC(=O)O)C(=O)N[C@@H]1C(=O)NCC(=O)N[C@@H](CCCN)C(=O)N[C@@H](CC(=O)O)C(=O)N[C@H](C)C(=O)N[C@@H](CC(=O)O)C(=O)NCC(=O)N[C@H](CO)C(=O)N[C@@H]([C@H](C)CC(=O)O)C(=O)N[C@@H](CC(=O)c2ccccc2N)C(=O)O[C@@H]1C` has an MIC of 0.031 mg/L (Staphylococcus simulans; broth microdilution; 22, Mueller-Hinton broth, Mg2+ 10 mg/L; 16 h, 30 °C, added: Ca2+ 5 mM).
With `C[C@H]1[C@H](NC(=O)/C(=N\OC(C)(C)C(=O)O)c2csc(N)n2)C(=O)N1S(=O)(=O)O` the MIC was 0.125 mg/L (Citrobacter freundii; agar dilution; ATCC 43864 susceptible).
`CC(C)(CN)CNCc1nc2ccccc2n1CCOc1ccccc1` has an MIC of 8 mg/L (Streptococcus pneumoniae; ATCC 49619).
With `COc1ccc(C=C2SC(=N)N(c3ccccc3OC)C2=O)cc1` the IC50 was 0.232 ± 0.066 µM (Plasmodium yoelii; 17XL; 384-well).
`Cc1ccc(CCC(=O)Nc2nnc(S(N)(=O)=O)s2)cc1` has an MIC of 3.06 µM (Enterococcus hirae; ATCC 10541).
`CC1(C)S[C@@H]2[C@H](NC(=O)[C@H](N)c3ccccc3)C(=O)N2[C@H]1C(=O)O` has an MIC of > 16 mg/L (Serratia fonticola; clinical isolate RKI-No_517/16).
`CN[C@H](CC(C)C)C(=O)N[C@H]1C(=O)N[C@@H](CC(N)=O)C(=O)N[C@H]2C(=O)N[C@H]3C(=O)N[C@H](C(=O)N[C@H](C(=O)O)c4cc(O)cc(O)c4-c4cc3ccc4O)[C@H](O)c3ccc(c(Cl)c3)Oc3cc2cc(c3O[C@@H]2O[C@H](CO)[C@@H](O)[C@H](O)[C@H]2O[C@H]2C[C@](C)(N)[C@H](O)[C@H](C)O2)Oc2ccc(cc2Cl)[C@H]1O` gave an MIC of 0.084 µM (Staphylococcus simulans; broth microdilution; 22, cation-adjusted Mueller-Hinton broth).
`Cc1cc(Nc2ccc(S(F)(F)(F)(F)F)cc2)n2nc(C(C)(F)F)nc2n1` — result for “patients with administration site conditions”: 30.8% (Plasmodium falciparum; P. falciparum malaria patients; oral, 400 mg).
For `CNC(C)C1CCC(N)C(OC2C(N)CC(N)C(OC3OCC(C)(O)C(NC)C3O)C2O)O1` (stereo not shown), the MIC was 4 mg/L (Pseudomonas aeruginosa; clinical isolate RKI-No_597/16).
`Clc1ccc2c(NN=Cc3cccs3)ccnc2c1` has an IC50 of > 20 µM (Plasmodium yoelii; 17XL; 384-well).
`N=C(N)c1ccc(OCCC(CCOc2ccc(C(=N)N)cc2)c2ccccc2)cc1` (stereo not shown) gave an MIC of 6.25 mg/L (Escherichia coli; W3110; in combination, checkerboard, added: rifampicin).
`C[C@@H](O)[C@H]1C(=O)N2C(C(=O)O)=C(S[C@@H]3CN[C@H](C(=O)N(C)C)C3)[C@H](C)[C@H]12` gave an MIC of ≤ 0.5 mg/L (Salmonella enterica München; broth microdilution; clinical isolate RKI 419/14).
`FC(F)(F)Oc1ccc(OCCn2c(CNCC34CC5CC(CC(C5)C3)C4)nc3ccccc32)cc1` has an MIC of 8 mg/L (Streptococcus pneumoniae; ATCC 49619).
For `CN[C@H](CC(C)C)C(=O)N[C@H]1C(=O)N[C@@H](CC(N)=O)C(=O)N[C@H]2C(=O)N[C@H]3C(=O)N[C@H](C(=O)N[C@H](C(=O)O)c4cc(O)cc(O)c4-c4cc3ccc4O)[C@H](O)c3ccc(c(Cl)c3)Oc3cc2cc(c3O[C@@H]2O[C@H](CO)[C@@H](O)[C@H](O)[C@H]2O[C@H]2C[C@](C)(N)[C@H](O)[C@H](C)O2)Oc2ccc(cc2Cl)[C@H]1O`, the MIC was 1 mg/L (Kocuria sp.; broth microdilution; sugar glider pouch or skin isolate, cation-adjusted Mueller-Hinton broth; 16 h, 37 °C, above 90% inhibition).
`CC(C)C[C@@H]1NC(=O)[C@@H](Cc2ccccc2)NC(=O)[C@H](CCN)NC(=O)[C@@H](NC(=O)[C@H](CCN)NC(=O)[C@@H](N)[C@@H](C)O)CCNC(=O)[C@H]([C@@H](C)O)NC(=O)[C@H](CCN)NC(=O)[C@H](CCN)NC1=O` has an MIC of 12.5 mg/L (Escherichia coli; MIC of compound in combination, checkerboard; 552100; concentration not given, added: rifampicin).
`CCCCCCCCCC(=O)N[C@@H](Cc1c[nH]c2ccccc12)C(=O)N[C@H](CC(N)=O)C(=O)N[C@@H](CC(=O)O)C(=O)N[C@@H]1C(=O)NCC(=O)N[C@@H](CCCN)C(=O)N[C@@H](CC(=O)O)C(=O)N[C@H](C)C(=O)N[C@@H](CC(=O)O)C(=O)NCC(=O)N[C@H](CO)C(=O)N[C@@H]([C@H](C)CC(=O)O)C(=O)N[C@@H](CC(=O)c2ccccc2N)C(=O)O[C@@H]1C` has an MIC of 1 mg/L (Staphylococcus aureus; SH1000; added: menaquinone-4, molar ratio 2).

Repeated from above:
`N=C(N)c1ccc(OCCC(CCOc2ccc(C(=N)N)cc2)c2ccccc2)cc1` (stereo not shown) gave an MIC of 6.25 mg/L (Escherichia coli; W3110; in combination, checkerboard, added: rifampicin).
`C[C@@H](O)[C@H]1C(=O)N2C(C(=O)O)=C(S[C@@H]3CN[C@H](C(=O)N(C)C)C3)[C@H](C)[C@H]12` gave an MIC of ≤ 0.5 mg/L (Salmonella enterica München; broth microdilution; clinical isolate RKI 419/14).
`FC(F)(F)Oc1ccc(OCCn2c(CNCC34CC5CC(CC(C5)C3)C4)nc3ccccc32)cc1` has an MIC of 8 mg/L (Streptococcus pneumoniae; ATCC 49619).
